Measured values pooled from the literature.
Each numbered part is a random draw from the data of one study; scales do not carry over between parts. Positions count from the first letter of the parent shown.

Sample 1
Target: RING finger protein unkempt homolog, zinc fingers 1-6, GST-SBP tag (UNK, Homo sapiens, UniProt Q9C0B0, residues 30-357)
Technique: RNA Bind-n-Seq
Molecule type: RNA
Medium: in vitro
Tested at: not given
Notes: RNA with constant flanks, human-mouse chimeric sites, ends assumed
Baseline: input RNA pool
Reading: higher = stronger binding
Quantity: bound/input enrichment
Constant ends, left off below: GGGAGUUCUACAGUCCGACGAUC … CAACAGAGGAUUGAGCAUCA
Construct (chain): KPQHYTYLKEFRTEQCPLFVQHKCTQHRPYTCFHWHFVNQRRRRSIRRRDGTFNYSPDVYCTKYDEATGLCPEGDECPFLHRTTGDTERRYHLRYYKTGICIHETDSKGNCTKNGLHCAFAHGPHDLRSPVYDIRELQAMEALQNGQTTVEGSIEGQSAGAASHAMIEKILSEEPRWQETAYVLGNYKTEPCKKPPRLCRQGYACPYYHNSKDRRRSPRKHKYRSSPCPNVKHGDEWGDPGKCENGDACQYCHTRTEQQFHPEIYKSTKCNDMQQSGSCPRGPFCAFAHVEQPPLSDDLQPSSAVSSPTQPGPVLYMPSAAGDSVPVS
GGACAUCUGUCAAAUUGUUAUGUUCCUAAAAACGUAGUGAACACUCUGAUACACUUCAUCUGCUUGUACAUUUAACUGAUAGAGAAAUGUAAAUAUGUUAAUCCAAGCAAUGUGUCACUU: 0.302 ratio
UUAUCCAAGACUCAACGAAAGACUCCAACGGUUAUUCAUAAACAUUAUCAAAUUCAUCGGAUUCGACAUUUUUACAUGAGAAAAGUCAAAUUUACUCAACAGAAUUACCAUGAUAGACUG: 0.299 ratio
ACAGUUAUAUUGUUGAGUUUCAUUUUCAUAUAUUCUUGUAGUGUCUGCUUGCCUGUGACUUCUGGUAAAAUAAAAUAUUAAAAUUACUUAGCAUGCUCAUGGUAUUUAACAUUUUCUAAA: 2.58 ratio
UUACCCGAGAACGAGGAUGAGCUGGAGAGCACCAACAGGCGCUACACCAAGAGGGACUGCAGCACUUUCCUCAGAACUAGCGAGACGGGCAUCGUGGACCAGGUCAUGGUCACUCUCAAC: 0.119 ratio
AAAUCGUGUGUGUCAAAUAUUGAAAGUGCUUUAUCUACACUCCAGUAUGUAAGCAGUAUAGUAGUUUCUUUAGAGAAUAGGUCAGCCAUUGUAAAGUACAAUGCAAGCUUAGUCACUCCA: 13.7 ratio
CUGUGUGGCUUACUAAAAUGGCUUGUAAAGAAGUUUUUCCAAGCUGUAACCCAUGCUGUUAUUAUAGUUGCUGCAAAAUGUUCUUCCUGAUAUUGAUUUUAUUUGUUCUGACUCUCCCUC: 0.781 ratio
GGAAGUACAAUGAUGGAGAUUGAUGGUGACAAAGGCAAGCAGGGCGGUCCCACCUACUACAUAGACACUAAUGCUCUCCGCGUGCCCAGGGAGAACAUGGAGGCCAUCUCACCACUCAAG: 0.628 ratio
UCUUAACUUAUUCAUUUAACUUAUUUUUAUAGCUAGAUAAAUAUUGUUAGUCUUAGUCAAUAGCUCACAUUUUUUGAGAAGCAUGCCCUCCCUGUCCAUUGGGCCCAUAACAUGACCCAG: 39.9 ratio
AGGAGGAGAUUAAAGGGUGAGAGUGGGGUGGAAGACUGUGUCAUGGCCCUAGAAACCCUGUUCAGUGUCCUGCUUUCUCUGUGCAGACUGAUGGCCCCUUACACGCCCUUUCUGACUGAG: 0.0388 ratio
GGGGAGAAACCUUACGAGUGUGUGCAGUGUGGGAAAUCGUAUAGUCAGAGCUCAAACCUCUUCAGACAUCAGAGACGACACAAUGCAGAAAAACUUCUGAAUGUUGUGAAGGUUUAAGAA: 1.1 ratio
UAUCCAACUUUCUUGCCACAUUUUGAAUUCCAAGACAUUAUUCCUCCAGAUGACUUCCUAACUAGUGAUGAAGAGCAAGAUUUGGUUUUAUUUGGAACUAUGAGAGGACAAGUUGUUGGA: 0.277 ratio

Sample 2
Target: Sal-like protein 4, full length isoform B (SALL4, Homo sapiens, UniProt Q9UJQ4-2, residues 1-616)
Technique: universal PBM
Molecule type: double-stranded DNA, one strand shown
Medium: in vitro
Tested at: not given
Notes: 8-mer, flanks averaged, mean of replicates
Reading: higher = stronger binding
Quantity: E-score
Target sequence (chain): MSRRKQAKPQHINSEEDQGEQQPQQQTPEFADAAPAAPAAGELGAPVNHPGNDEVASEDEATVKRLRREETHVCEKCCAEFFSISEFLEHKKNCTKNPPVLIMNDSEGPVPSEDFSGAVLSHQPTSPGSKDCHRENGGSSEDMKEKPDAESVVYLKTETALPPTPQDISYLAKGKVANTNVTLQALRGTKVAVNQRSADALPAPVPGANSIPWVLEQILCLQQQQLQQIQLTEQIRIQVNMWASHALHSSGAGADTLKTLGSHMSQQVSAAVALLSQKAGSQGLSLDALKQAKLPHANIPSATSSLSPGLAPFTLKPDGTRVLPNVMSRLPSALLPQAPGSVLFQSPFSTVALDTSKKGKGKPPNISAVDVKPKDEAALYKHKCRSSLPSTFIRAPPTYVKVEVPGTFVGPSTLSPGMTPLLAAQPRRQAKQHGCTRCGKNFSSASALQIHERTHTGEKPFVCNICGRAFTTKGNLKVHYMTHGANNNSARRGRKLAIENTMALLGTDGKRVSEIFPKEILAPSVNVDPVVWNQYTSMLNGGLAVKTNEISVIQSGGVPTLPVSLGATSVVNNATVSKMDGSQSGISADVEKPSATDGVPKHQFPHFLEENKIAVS
ATTTCCTA: 0.25
CCGGTACA: -0.127
ACAAAGCC: -0.186
ACTTCGAT: 0.0476
GCCGTACA: -0.0563
CGTGGCGC: -0.271
GCGAAACA: -0.0711
AGACGCTA: -0.141

Sample 3
Target: CCND1, cyclin fold, Cln2 fusion (human)
Technique: yeast growth competition, sequencing
Medium: yeast
Notes: strong parent motif
Baseline: not given
Reading: higher = stronger binding
Quantity: normalised enrichment score
Starting sequence: PKN2 docking peptide (human); VSAVQKLDFSDTM
K6H: 0.948
L7N: 0.0422
V1N: 1.94
K6S: 1.42
D11W: 1.44
S2I: 1.56
V1F: 3.04
K6D: 0.759
L7D: 0.267
T12Q: 2.08
M13D: 2.2

Mixed results
PhoQ, residues 284 288 289 292 302 303 TASMAF — fold induction (PhoP, residues 12 14 15 18 19 NFCKL (Escherichia coli, UniProt P23836); Sort-seq, measured: YFP reporter; E. coli; PhoQ-PhoP variant library, together with: 10 µM Mg2+; baseline: high Mg2+ state, higher = stronger signaling): 3.38
